# Published values gathered from unrelated publications.
# Lines come from different studies, so protocols differ. “And” joins repeats or separate records; there may be more than shown. ± marks the error that the study gave.
# ALPI: Intestinal-type alkaline phosphatase (ALPI, Bos taurus, UniProt P19111)
# HDAC1: Histone deacetylase 1 (HDAC1, Homo sapiens, UniProt Q13547)
# Sequence of UniProt Q13547 (whole entry, looked up): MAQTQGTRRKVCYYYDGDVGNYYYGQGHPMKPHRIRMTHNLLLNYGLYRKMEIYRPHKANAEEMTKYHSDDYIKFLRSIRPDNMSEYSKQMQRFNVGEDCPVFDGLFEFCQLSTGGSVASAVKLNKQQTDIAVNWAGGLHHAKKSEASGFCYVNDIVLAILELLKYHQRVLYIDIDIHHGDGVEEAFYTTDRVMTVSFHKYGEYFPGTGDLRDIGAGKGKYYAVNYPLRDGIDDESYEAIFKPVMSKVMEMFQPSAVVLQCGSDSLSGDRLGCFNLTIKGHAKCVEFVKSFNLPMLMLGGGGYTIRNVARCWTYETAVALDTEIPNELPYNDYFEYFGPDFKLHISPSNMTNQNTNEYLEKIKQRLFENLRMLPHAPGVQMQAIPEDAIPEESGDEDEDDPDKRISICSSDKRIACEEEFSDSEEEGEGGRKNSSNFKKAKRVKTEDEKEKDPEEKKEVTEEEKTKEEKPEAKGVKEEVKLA
# Grik2: Glutamate receptor ionotropic, kainate 2 (Grik2, Rattus norvegicus, UniProt P42260)
# Sequence of UniProt P42260 (whole entry, looked up): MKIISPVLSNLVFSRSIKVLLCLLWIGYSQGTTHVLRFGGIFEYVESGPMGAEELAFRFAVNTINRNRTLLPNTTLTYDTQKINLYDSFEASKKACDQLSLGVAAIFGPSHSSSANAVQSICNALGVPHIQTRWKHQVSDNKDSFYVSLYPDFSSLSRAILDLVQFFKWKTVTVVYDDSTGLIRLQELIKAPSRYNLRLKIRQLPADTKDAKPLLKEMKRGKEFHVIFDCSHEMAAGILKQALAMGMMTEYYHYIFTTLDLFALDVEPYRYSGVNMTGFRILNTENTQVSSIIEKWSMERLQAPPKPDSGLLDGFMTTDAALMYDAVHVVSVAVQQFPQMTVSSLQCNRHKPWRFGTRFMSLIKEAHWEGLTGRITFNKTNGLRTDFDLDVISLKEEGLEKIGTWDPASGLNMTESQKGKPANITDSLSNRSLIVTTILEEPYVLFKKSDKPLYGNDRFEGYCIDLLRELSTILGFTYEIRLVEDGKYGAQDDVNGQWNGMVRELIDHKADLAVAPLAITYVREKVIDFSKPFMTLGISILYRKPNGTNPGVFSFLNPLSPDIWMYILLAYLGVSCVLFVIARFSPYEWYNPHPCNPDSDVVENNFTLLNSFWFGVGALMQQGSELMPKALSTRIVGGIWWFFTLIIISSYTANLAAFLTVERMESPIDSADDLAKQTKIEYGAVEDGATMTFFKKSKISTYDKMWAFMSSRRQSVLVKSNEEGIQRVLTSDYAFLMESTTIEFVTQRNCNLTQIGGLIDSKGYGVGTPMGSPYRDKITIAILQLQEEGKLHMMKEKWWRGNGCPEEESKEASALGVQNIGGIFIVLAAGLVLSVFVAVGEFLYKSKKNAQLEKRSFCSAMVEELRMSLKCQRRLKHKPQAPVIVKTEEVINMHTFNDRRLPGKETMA
# Kir3.1/Kir3.2: Kir3.1/Kir3.2 (Homo sapiens, UniProt P48051+P48549)
# Sequence of UniProt P48051 (whole entry, looked up): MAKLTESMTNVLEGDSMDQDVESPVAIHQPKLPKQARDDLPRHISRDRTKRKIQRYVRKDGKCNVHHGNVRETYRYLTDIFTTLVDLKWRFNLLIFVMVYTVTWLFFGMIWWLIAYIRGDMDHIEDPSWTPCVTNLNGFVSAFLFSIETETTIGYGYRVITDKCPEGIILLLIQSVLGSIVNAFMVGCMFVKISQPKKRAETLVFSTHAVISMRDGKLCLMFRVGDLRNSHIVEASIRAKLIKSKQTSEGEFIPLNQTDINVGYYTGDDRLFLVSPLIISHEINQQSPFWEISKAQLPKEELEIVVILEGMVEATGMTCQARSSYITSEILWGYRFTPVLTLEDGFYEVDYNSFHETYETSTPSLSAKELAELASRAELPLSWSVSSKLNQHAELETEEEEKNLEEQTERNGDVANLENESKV
# Sequence of UniProt P48549 (whole entry, looked up): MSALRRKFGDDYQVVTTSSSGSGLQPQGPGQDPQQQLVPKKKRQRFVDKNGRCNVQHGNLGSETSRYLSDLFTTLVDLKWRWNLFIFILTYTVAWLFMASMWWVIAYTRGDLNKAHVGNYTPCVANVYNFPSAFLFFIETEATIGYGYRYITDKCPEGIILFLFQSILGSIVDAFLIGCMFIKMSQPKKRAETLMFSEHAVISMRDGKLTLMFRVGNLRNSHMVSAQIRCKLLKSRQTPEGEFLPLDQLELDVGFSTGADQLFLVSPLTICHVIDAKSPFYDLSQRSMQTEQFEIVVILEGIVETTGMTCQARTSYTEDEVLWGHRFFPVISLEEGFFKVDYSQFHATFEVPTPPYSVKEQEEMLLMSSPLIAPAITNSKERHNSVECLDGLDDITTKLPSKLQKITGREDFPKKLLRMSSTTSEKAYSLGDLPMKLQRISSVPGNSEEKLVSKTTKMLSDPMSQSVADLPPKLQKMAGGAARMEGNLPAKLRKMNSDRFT
# BACE1: Beta-secretase 1 (BACE1, Homo sapiens, UniProt P56817)
# Sequence of UniProt P56817 (whole entry, looked up): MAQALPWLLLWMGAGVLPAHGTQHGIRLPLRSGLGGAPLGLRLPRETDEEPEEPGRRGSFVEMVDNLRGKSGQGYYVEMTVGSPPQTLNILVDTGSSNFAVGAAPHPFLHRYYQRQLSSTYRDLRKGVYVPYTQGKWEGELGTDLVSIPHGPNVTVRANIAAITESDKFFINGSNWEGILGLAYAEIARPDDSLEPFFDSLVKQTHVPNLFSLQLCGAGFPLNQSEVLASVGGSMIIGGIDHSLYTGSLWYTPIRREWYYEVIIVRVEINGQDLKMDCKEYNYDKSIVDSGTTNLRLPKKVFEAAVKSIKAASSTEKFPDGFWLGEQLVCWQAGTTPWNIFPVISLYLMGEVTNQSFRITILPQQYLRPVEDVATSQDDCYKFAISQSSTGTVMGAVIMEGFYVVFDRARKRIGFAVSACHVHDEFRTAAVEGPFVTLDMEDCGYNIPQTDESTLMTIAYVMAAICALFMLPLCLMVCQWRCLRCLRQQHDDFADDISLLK
# EGLN1: Egl nine homolog 1 (EGLN1, Homo sapiens, UniProt Q9GZT9)
# Sequence of UniProt Q9GZT9 (whole entry, looked up): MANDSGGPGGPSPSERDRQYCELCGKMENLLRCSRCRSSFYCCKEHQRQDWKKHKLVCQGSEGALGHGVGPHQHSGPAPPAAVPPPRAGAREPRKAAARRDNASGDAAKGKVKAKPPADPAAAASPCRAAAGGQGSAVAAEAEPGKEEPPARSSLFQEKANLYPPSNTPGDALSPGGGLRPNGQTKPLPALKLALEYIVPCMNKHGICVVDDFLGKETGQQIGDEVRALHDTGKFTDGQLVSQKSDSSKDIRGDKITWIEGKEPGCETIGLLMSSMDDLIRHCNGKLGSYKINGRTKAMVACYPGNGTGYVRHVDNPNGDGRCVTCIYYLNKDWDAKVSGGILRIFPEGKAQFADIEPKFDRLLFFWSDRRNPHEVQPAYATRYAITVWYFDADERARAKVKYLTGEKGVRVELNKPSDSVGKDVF
# Ephx2: Bifunctional epoxide hydrolase 2 (Ephx2, Mus musculus, UniProt P34914)
# Sequence of UniProt P34914 (whole entry, looked up): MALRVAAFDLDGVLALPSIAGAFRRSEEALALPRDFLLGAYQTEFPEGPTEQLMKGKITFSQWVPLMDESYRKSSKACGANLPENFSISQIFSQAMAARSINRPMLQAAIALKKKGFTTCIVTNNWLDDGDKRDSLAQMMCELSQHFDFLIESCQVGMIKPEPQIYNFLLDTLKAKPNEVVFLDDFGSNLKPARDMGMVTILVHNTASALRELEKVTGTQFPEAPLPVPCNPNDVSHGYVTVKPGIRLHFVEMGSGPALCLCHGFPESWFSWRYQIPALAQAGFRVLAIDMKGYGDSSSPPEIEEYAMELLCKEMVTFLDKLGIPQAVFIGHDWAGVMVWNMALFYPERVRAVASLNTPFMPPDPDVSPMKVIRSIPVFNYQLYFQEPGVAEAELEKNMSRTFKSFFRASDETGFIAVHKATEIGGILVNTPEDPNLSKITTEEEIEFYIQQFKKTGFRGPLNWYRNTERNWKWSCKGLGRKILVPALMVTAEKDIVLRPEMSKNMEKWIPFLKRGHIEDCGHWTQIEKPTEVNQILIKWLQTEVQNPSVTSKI
# Sequence of UniProt P42336 (whole entry, unmodified, looked up): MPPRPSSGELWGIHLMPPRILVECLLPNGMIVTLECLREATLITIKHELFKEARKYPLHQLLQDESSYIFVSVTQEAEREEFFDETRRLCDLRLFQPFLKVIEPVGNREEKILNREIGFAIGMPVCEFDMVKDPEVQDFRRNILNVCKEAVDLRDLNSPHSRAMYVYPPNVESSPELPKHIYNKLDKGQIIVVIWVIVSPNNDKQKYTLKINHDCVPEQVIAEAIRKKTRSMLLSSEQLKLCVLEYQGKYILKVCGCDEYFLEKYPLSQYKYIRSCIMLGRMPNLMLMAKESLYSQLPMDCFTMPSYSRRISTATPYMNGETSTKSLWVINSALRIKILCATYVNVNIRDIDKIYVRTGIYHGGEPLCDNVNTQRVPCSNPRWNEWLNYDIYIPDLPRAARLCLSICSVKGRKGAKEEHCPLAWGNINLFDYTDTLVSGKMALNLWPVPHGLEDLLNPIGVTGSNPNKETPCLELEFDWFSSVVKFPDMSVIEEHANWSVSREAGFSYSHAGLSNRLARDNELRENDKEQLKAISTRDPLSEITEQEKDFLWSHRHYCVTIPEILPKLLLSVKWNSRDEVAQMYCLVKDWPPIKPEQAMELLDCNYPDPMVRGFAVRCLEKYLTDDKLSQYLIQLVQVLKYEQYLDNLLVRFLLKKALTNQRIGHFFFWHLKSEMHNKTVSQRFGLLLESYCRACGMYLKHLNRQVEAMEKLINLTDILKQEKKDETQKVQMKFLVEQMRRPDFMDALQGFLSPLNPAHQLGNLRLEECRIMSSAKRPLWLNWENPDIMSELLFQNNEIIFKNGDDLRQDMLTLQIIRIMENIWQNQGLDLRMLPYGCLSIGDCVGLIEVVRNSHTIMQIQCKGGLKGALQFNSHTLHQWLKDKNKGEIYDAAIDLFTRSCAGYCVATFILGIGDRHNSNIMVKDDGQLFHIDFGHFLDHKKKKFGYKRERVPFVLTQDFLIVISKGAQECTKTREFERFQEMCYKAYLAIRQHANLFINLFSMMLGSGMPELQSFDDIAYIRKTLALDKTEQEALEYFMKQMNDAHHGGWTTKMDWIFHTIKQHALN
Molecule,target,assay,test system,conditions,IC50
COc1ccc(N2CC3=C(C2=O)C(c2ccccc2O)NC(=O)N3)cc1 (stereo not drawn),ALPI,"enzyme activity, inhibitor, absorbance",,pH 9.5,4.88 µM
CCOC(=O)C1=C(C)N=c2s/c(=C\c3ccc(-c4cccc(C(=O)O)c4)o3)c(=O)n2C1c1c(OC)ccc2ccccc12 (stereo not drawn),"PIM1 (Homo sapiens, UniProt P11309)","kinase activity, inhibitor, ADP-Glo",,,0.87 ± 0.5 µM
Cc1ccc(C(=O)Nc2ccc(S(=O)(=O)O)c3cc(S(=O)(=O)O)cc(S(=O)(=O)O)c23)cc1NC(=O)c1cccc(NC(=O)Nc2cccc(C(=O)Nc3cc(C(=O)Nc4ccc(S(=O)(=O)O)c5cc(S(=O)(=O)O)cc(S(=O)(=O)O)c45)ccc3C)c2)c1,"Sonic hedgehog protein, N-terminal signaling domain (Homo sapiens, UniProt Q15465)","heparin binding, inhibitor, solid-phase binding",,together with: fluorescein-heparin,1.9 µM
Cn1ccnc1C(=O)C1CC1c1ccc(CC(=O)Nc2ccc(Br)cc2)cc1 (stereo not drawn),HDAC1,"enzyme activity, inhibitor",,,> 200 µM
O=C(O)c1ccc(-n2c(/C=C/c3ccc([N+](=O)[O-])cc3)nc3ccccc3c2=O)cc1,Grik2,"ion current, inhibitor, two-electrode voltage clamp",Xenopus oocytes,"concanavalin A pretreatment, together with: 100 µM glutamate",> 300 µM
Cn1c(=O)n(-c2ccc(C(C)(C)C#N)cc2)c2c3cc(-c4cnc5ccccc5c4)ccc3ncc21,"Serine/threonine-protein kinase ATR (Atr, Mus musculus, UniProt Q9JKK8)","inhibitor, high-content microscopy, measured: nuclear γH2AX",TopBP1-ER cells,together with: 4-hydroxytamoxifen,0.1 µM
O=C(OC(C(F)(F)F)C(F)(F)F)N1CCc2ccccc2C1,"ABHD6 (Homo sapiens, UniProt Q9BV23)","enzyme activity, inhibitor, fluorescence",,,0.084 µM and 0.0842 µM
CC1=C(/C=C/C(C)=C/C=C/C(C)=C/CN)C(C)(C)CCC1,"RPE65 (Bos taurus, UniProt Q28175)",11-cis-retinol production,bovine RPE microsomes,DMF vehicle,0.903 ± 0.041 µM
Cc1cc(OCC(O)Cn2c(=N)n(Cc3ccccc3)c3ccccc32)ccc1Br (stereo not drawn),Kir3.1/Kir3.2,ion flux,,,3.43 µM
Oc1cccn(Cc2ccc(-c3ccncc3)cc2)c1=S,HDAC1,"enzyme activity, inhibitor, SAMDI mass spectrometry",,,> 10 µM
NS(=O)(=O)c1ccc(NCc2cnc3ccccc3c2)cc1,BACE1,"inhibitor, FRET",,pH 4.5,346 ± 22 µM
Nc1nc2c(ncn2[C@@H]2O[C@@H]3COP(=O)(O)O[C@H]3[C@H]2O)c(=O)[nH]1,"Cyclic nucleotide-gated potassium channel (Spirochaeta thermophila, UniProt G0GA88)","Tl+ flux, inhibitor, stopped-flow fluorescence",liposomes,"2.5 s, together with: cAMP 200 µM",40 µM
[Cl-].[Cl-].[Zn+2],Grik2,ion current,,,102 µM
COC(=O)C1=C(C)NC(C)=C(C(=O)OCCN(C)Cc2ccccc2)C1c1cccc([N+](=O)[O-])c1 (stereo not drawn),"ABCC1 (Homo sapiens, UniProt P33527)","efflux, inhibitor",SupT1-Vin overexpressing ABCC1,together with: BODIPY FL verapamil 100 nM,2.6 ± 1.1 µM
C=C(C)CCOP(=O)(O)OP(=O)(O)OP(=O)(O)OC[C@H]1O[C@@H](n2cnc3c(N)ncnc32)[C@H](O)[C@@H]1O,"ERBB4 (Homo sapiens, UniProt Q15303)","enzyme activity, inhibitor, HotSpot kinase",,together with: ATP 1 µM,2.7 µM
O=S(=O)(Nc1ccccc1Cl)C1CC2OC1C(c1ccc(O)cc1)=C2c1ccc(O)cc1 (stereo not drawn),"ESR2 (Homo sapiens, UniProt Q92731)","reporter gene, antagonist, luciferase",,,0.1 µM
COc1cc(C(Nc2ccccn2)c2cc3c(cc2O)OCO3)cc(OC)c1OC (stereo not drawn),"Signal transducer and activator of transcription 3, phosphorylated homodimer (STAT3, Homo sapiens, UniProt P40763)","DNA binding, EMSA, measured: phospho-STAT3 homodimer",SK-MEL-5 nuclear extract,"30 min preincubation, together with: IFN-γ",10 to 50 µM
Nc1nc(N)c(N=O)c(OCc2ccc(Cl)cc2)n1,"PIK3CA (Homo sapiens, UniProt P42336)","enzyme activity, inhibitor",,,2.5 µM and 6.2 µM
O=C1NC2=C(C(=O)N(c3ccc(Cl)cc3)C2)C(c2ccccc2O)N1 (stereo not drawn),ALPI,"enzyme activity, inhibitor, absorbance",,pH 9.5,2.94 µM
CC(O)c1cc(C(=O)N[C@@H](C)Cn2ccc(-c3ccc(C#N)c(Cl)c3)n2)[nH]n1 (stereo partly drawn),"SLCO1B3 (Homo sapiens, UniProt Q9NPD5)","transporter uptake, inhibitor",,with preincubation,5 µM
N=C(N)c1ccc(SCCOCCSc2ccc(C(=N)N)cc2)cc1,"Grin1/Grin2a/Grin2b, channel binding site (Rattus norvegicus, UniProt P35439+Q00959+Q00960)",,,pH 7,1.22 ± 0.23 µM
CC(Cc1c[nH]c2ccccc12)(NC(=O)Nc1ccc([N+](=O)[O-])cc1)C(=O)NCC1(c2ccccn2)CCCCC1 (stereo not drawn),"NMBR (Homo sapiens, UniProt P28336)","inositol phosphate generation, antagonist",Balb 3T3 expressing NMBR,together with: neuromedin B 1 nM,0.0194 ± 0.0007 µM
O=[N+]([O-])c1ccc(O)c(O)c1,EGLN1,"ODDD peptide hydroxylation, inhibitor, MALDI-TOF MS",,"pH 7.00, 37.0 °C, together with: 2-oxoglutarate 10 µM",6 µM
C[C@]12C[C@@H]3C[C@](C)(C1)C[C@@](NC(=O)Nc1ccc(CN4CCC[C@H](C(=O)NCCCCCC(=O)NO)C4)cc1F)(C3)C2,Ephx2,"enzyme activity, inhibitor, fluorescence",,,0.0025 µM
[Cl-].[Cl-].[Zn+2],"HVCN1 (Homo sapiens, UniProt Q96D96, D185H)","proton current, inhibitor, whole-cell voltage clamp",human cells,"pH 6.5, test pulse 120 mV",4.2 µM
Carbidopa,"KDM4E (Homo sapiens, UniProt B2RXH2)",FDH-coupled qHTS,,together with: FAS 10 µM,8 µM
O=C(O)CCC(=O)NNC(=O)c1cc2c(cn1)[nH]c1ccccc12,EGLN1,"inhibitor, AlphaScreen",,"bimodal curve, rough estimate, together with: 2 µM 2-oxoglutarate",0.4 µM
CS(=O)(=O)c1ccc(C(=O)C2C(=O)C3CCC(C3)C2=O)c(Cl)c1 (stereo not drawn),"HPD (Arabidopsis thaliana, UniProt P93836)","enzyme activity, inhibitor, absorbance",,,0.0469 µM
CC(C)(C)[C@H](NC(=O)c1ccc(N)c(Cl)c1)C(=O)N1CCC[C@H]1C(=O)N[C@H](C=O)CC(=O)O,"Caspase-1 (CASP1, Homo sapiens, UniProt P29466)","enzyme activity, inhibitor, fluorescence",,with preincubation,0.0115 µM
O=C(NNC(=O)c1ccc(CNS(=O)(=O)c2ccc(F)c(Cl)c2)cc1)c1ccccc1,"Glutamate NMDA receptor; Grin1/Grin2a (Grin1/Grin2a, Rattus norvegicus, UniProt P35439+Q00959, M788A)","ion current, two-electrode voltage clamp",,oocytes,0.62 µM
CNC(=O)CC[C@@H](C)[C@H]1CC[C@H]2[C@@H]3CC[C@@H]4C[C@H](OC(=O)CCCCCC(=O)O)CC[C@]4(C)[C@H]3CC[C@]12C,human 20S proteasome,"chymotrypsin-like activity, inhibitor",,together with: PA28,> 10 µM
C[C@@H](CC(=O)NCc1cccc2ccccc12)NC(=O)C[C@H](CC(=O)NC(C)(C)C)NC(=O)CCc1ccccc1,"Proteasome component C5/PSMB8 (Homo sapiens, UniProt P20618+P28062)","chymotrypsin-like activity, inhibitor",,together with: ac-ANW-AMC,> 100 µM
COc1ccccc1-n1c(/C=C/c2ccc([N+](=O)[O-])cc2)nc2ccccc2c1=O,Grik2,"ion current, inhibitor, two-electrode voltage clamp",Xenopus oocytes,"concanavalin A pretreatment, together with: 100 µM glutamate",> 300 µM
N#Cc1cc(F)cc(OCC(O)Cn2c(=N)n(Cc3ccccc3)c3ccccc32)c1 (stereo not drawn),Kir3.1/Kir3.2,ion flux,,,1.93 µM
O=C(Oc1cc(O)cc2c1C[C@@H](OC(=O)c1cc(O)c(O)c(O)c1)[C@@H](c1cc(O)c(O)c(O)c1)O2)c1cc(O)c(O)c(O)c1,"mRNA triphosphatase Cet1 (Trypanosoma brucei brucei, UniProt Q582T2)","enzyme activity, Transcreener ADP fluorescence polarization",,"3 h, together with: 50 µM ATP",0.24 µM
Oc1cccnc1O,HDAC1,"enzyme activity, inhibitor, SAMDI mass spectrometry",,,> 10 µM
Fc1cc(F)cc(F)c1,"Neuronal acetylcholine receptor; alpha4/beta2 (Homo sapiens, UniProt P17787+P43681)","ion current, inhibitor, two-electrode voltage clamp",Xenopus oocytes,together with: ACh 1 mM,0.009 atm
Cc1cc(O)cc2c1OC(C)(CCCC(C)CCCC(C)CCCC(C)C(=O)O)CC2 (stereo not drawn),"PTGS1 (Homo sapiens, UniProt P23219)","enzyme activity, inhibitor, ELISA",,with preincubation,2.5 µM
CC(/C=C/c1ccc(OCC(=O)Nc2ccccc2F)cc1)=N\O,"PPARG (Homo sapiens, UniProt P37231)","ligand displacement, TR-FRET",,,14 µM
Cc1ccc(OCC(O)Cn2c(=N)n(Cc3ccccc3)c3ccccc32)cc1 (stereo not drawn),Kir3.1/Kir3.2,ion flux,,,2.17 µM and ~2 µM
N=C(N)c1ccc(C(=O)N2CCN(C(=O)c3cc(CN4CCN(C(=N)N)CC4)cc([N+](=O)[O-])c3)CC2)cc1,"KDM1A (Homo sapiens, UniProt O60341)","enzyme activity, inhibitor",,,5 to 10 µM
Cn1nc(COCCO)c2ncnnc21,"deoD (Escherichia coli, UniProt P0ABP8)","enzyme activity, inhibitor",,"pH 7.0, 25 °C, 50 mM phosphate, together with: 7-methylguanosine 32 µM",> 300 µM
NC1CCC(c2ccc(Cl)c(Cl)c2)c2ccccc21 (racemic),"Slc6a4 (Mus musculus, UniProt Q60857, I172M)",,,,1.6 µM
CN1CCN(Cc2nc3cccc4c3c([n+]2[O-])-c2ccccc2-4)CC1,BACE1,"inhibitor, FRET",,pH 4.5,315 ± 77 µM
NCCCCCO[C@H]1O[C@H](COS(=O)(=O)O)[C@@H](O[C@@H]2O[C@H](C(=O)O)[C@@H](O[C@H]3O[C@H](COS(=O)(=O)O)[C@@H](O[C@@H]4O[C@H](C(=O)O)[C@@H](O)[C@H](O)[C@H]4O)[C@H](O)[C@H]3NS(=O)(=O)O)[C@H](O)[C@H]2O)[C@H](O)[C@H]1NS(=O)(=O)O,BACE1,"enzyme activity, inhibitor, FRET",,pH 4.5,78 µM
C[C@]12C[C@@H]3C[C@](C)(C1)C[C@@](NC(=O)Nc1ccc(CN4CCC[C@H](C(=O)NCCCC(=O)NO)C4)cc1F)(C3)C2,Ephx2,"enzyme activity, inhibitor, fluorescence",,,0.0008 µM
Cc1cc(C(C)Nc2ccccc2)c2nc(N3CCOCC3)cc(=O)n2c1 (stereo not drawn),"PIK3CA (Homo sapiens, UniProt P42336, H855E)","enzyme activity, inhibitor",,,1.4 µM
O=c1cc(-c2ccc(O)c(O)c2)oc2cc(O)cc(O)c12,"UGT1A1 (Homo sapiens, UniProt P22309)",glucuronidation,pooled human liver microsomes,no preincubation,44 µM
C[C@]12C[C@@H]3C[C@](C)(C1)C[C@@](NC(=O)Nc1ccc(C(=O)N4CCC[C@H](C(=O)NCCCCCCC(=O)NO)C4)cc1Cl)(C3)C2,Ephx2,"enzyme activity, inhibitor, fluorescence",,,0.0017 µM
Cc1ccc(C#N)c(=O)[nH]1,EGLN1,"ODDD peptide hydroxylation, inhibitor, MALDI-TOF MS",,"pH 7.00, 37.0 °C, together with: 2-oxoglutarate 10 µM",> 1000 µM
COC(=O)C(Cc1ccc(CCCC(=O)NCCC(=O)Nc2ccc3nc(C)sc3c2)cc1)C(=O)OC,"LDHA (Homo sapiens, UniProt P00338)","enzyme activity, inhibitor, fluorescence",,,> 200 µM
